Results of several laboratories.
Protocols differ between the studies behind these lines. Several values in a cell are separate wells, animals, samples, runs or records. ± marks the error that the study gave. Values after ≈ are worked out from the molar mass of the structure shown.

SMILES	assay	test system	conditions	how to read	measurement	result
CCc1cc(C(=O)NC)c2nccc(N3CCc4c(cc(Cn5ccnc5)cc4-c4cn(C)nc4C(F)(F)F)C3=O)c2c1		Sprague Dawley rat	oral, 100 mg/kg once daily, 7 days	reference: vehicle	spleen weight change	-12.1%
NC(CO)(CO)CCc1ccc(Sc2cccc(OCc3ccccc3)c2)cc1Cl		human, supine	oral, 3 mg, 0 to 312 h, alone		pulse rate AUEC, median	18900 h×bpm
N#Cc1ccc2c(c1)[C@H]1CCCN(C(=O)c3ccc4[nH]cnc4c3)[C@H]1C2		human, male	240 mg, day 15		DHEA-S level	10 µmol/L
Cc1cccc(CNC(=O)c2cn(CCNC(=O)c3ccccc3Sc3c([N+](=O)[O-])ncn3C)c3cc4c(cc3c2=O)OC(F)(F)O4)n1		Sprague-Dawley rat, male, plasma	intravenous, 5 mg/kg of parent drug		half-life	33 ± 12 min
C[C@H](CCC(=O)NCCS(=O)(=O)O)[C@H]1CC[C@H]2[C@@H]3CC[C@@H]4C[C@H](O)CC[C@]4(C)[C@H]3C[C@H](O)[C@]12C		human, plasma	endogenous baseline diurnal	reference: daily mean concentration	relative peak deviation	214 ± 20%
Cc1cc(OCC(=O)OCCN)cc(C)c1Cc1ccc(O)c(C(C)C)c1.Cl	LC-MS/MS, measured: liberated sobetirome	mouse, serum	intraperitoneal, 1.5 µmol/kg, 30 min	reference: direct sobetirome injection	sobetirome level	decreased
Cc1cc(-c2nnc(N)nc2-c2ccc(F)cc2)cc(Cl)n1	measured: Diarrhea	human phase Ia/Ib mCRPC, immunotherapy-naive	oral, dose not given		patients with treatment-related adverse events	12.3%
CNCc1ccc(-c2[nH]c3cc(F)cc4c3c2CCNC4=O)cc1		human patients	oral, dose not given, all grades, all doses		incidence of AST/ALT increase	25%
CCc1c2c(nc3ccc(OC(=O)N4CCC(N5CCCCC5)CC4)cc13)-c1cc3c(c(=O)n1C2)COC(=O)[C@]3(O)CC		Mrp2(-/-) mouse, small intestine	intraperitoneal, 50 mg/kg/day, 24 h, after 6 doses	reference: FVB wild type	increase in Css	55%
COc1ncc(-c2nc3c(n2C(C)C)[C@H](c2ccc(Cl)cc2)N(c2cc(Cl)cn(C)c2=O)C3=O)c(OC)n1		human patients, plasma	oral, 2 mg, cycle 1 day 1		geometric mean AUC(0-last)	169 ng·h/mL
O=C(O)CCC(=O)O.[2H]C([2H])([2H])Oc1cc(C)c2[nH]ccc2c1CN1CC[C@@H](C2CC2)C[C@H]1c1ccc(C(=O)O)cc1	multiple ascending dose	healthy Chinese subjects	200 mg once daily		subjects with elevated AST TEAE	0%
CN(C)C(=N)N=C(N)N	measured: infections and infestations	healthy men	oral, dose not given, 8 days, treatment-emergent, crossover trial		subjects with adverse event	0%
CNC(=O)c1ccc(-c2cnc3ncc(Cc4ccc5ncccc5c4)n3n2)cc1F		Japanese patients	oral, 400 mg, grade 3/4		blood ALP increased dose reduction/interruption	0%
C[C@H]1Oc2cc(cnc2N)-c2c(nn(C)c2C#N)CN(C)C(=O)c2ccc(F)cc21		human, plasma	recommended dose, total		average steady-state concentration	580 nmol/L
COc1cccc(OC)c1-c1cc(C(=O)NC2(C(=O)O)C3CC4CC(C3)CC2C4)nn1-c1ccc(C(=O)N(C)CCCN(C)CCCN(C)C(=O)CN2CCN(CC(=O)[O-])CCN(CC(=O)[O-])CCN(CC(=O)[O-])CC2)cc1C(C)C.[177Lu+3] (stereo not shown)		mouse HT-29 xenograft, large intestine	4 h post injection, biodistribution		tissue uptake	3.6 %ID/g
NC[C@@H]1O[C@H](O[C@H]2[C@@H](O)[C@H](O[C@@H]3[C@@H](O)[C@H](N)C[C@H](N)[C@H]3O[C@H]3O[C@H](CO)[C@@H](O)[C@H](O)[C@H]3N)O[C@@H]2CO)[C@H](N)[C@@H](O)[C@@H]1O		NSG mice	dose not given, day 4 of treatment		body weight	20.7 g and 23.4 g and 23.3 g and 25.3 g and 23.6 g and 21 g and 22.7 g

SMILES	assay	test system	conditions	how to read	measurement	result
C=CC(=O)NC1CCN(c2ncc3ncnc(Nc4ccc(Oc5ccc6c(c5)ncn6C)c(C)c4)c3n2)CC1		healthy male volunteers, urine	oral solution, 60 mg, 680 h collection	reference: dose	radioactivity recovered	1.3%
O=C(O)CCCOc1ccc(F)cc1-c1cc(-c2ccccc2C(F)(F)F)n(-c2ccccc2)n1		Crl:CD(SD) rat, female, serum	iv, 25 µg/kg, 14 days		chloride	106 ± 1.5 mEq/L
Cc1ccc([C@@H]2O[C@H](CO)[C@@H](O)[C@H](O)[C@H]2O)cc1Cc1ccc(-c2ccc(F)cc2)s1		Japanese type 2 diabetes patients	200 mg, day 3, 24 h urine collection	reference: baseline	urinary potassium excretion change	2.82 mEq
C[Si]1(C)O[Si](C)(C)O[Si](C)(C)O[Si](C)(C)O[Si](C)(C)O1					slope B, log KAW vs 1/T	-6470
O=C(Nc1cnccc1Cl)N1CCN(Cc2ccc3c(c2)OC(F)(F)O3)CC1		young men, plasma	oral, 25 mg once daily, day 10, normalized to 10 mg		dose-normalized AUC(0-tau)	882 ng·h/mL
COc1cc2c3c(n(CCCN4CCOCC4)c(=O)c2cc1OC)-c1cc2c(cc1C3=O)OCO2		beagle dog, female, plasma	intravenous infusion, 50 mg/m^2, 1 h infusion		AUC(0-inf)	1110 ± 267 ng·h/mL
CC(C)n1c(Nc2cccnc2)nc2cnc(Nc3ccc(N4CCN(C)CC4)cc3)nc21	measured: creatine phosphokinase increased	healthy male subjects	oral, 100 mg, study, with: itraconazole		subjects with adverse event	7.1%
CC(C)(C(=O)N1CCOc2c(C#N)cncc2C1)C(F)F	measured: conjunctival hyperaemia	human	oral, 20 mg once daily, 14 days, multiple ascending dose		subjects with adverse event	0%
Cc1nc(-c2cnc(NC(C)C)n(C)c2=O)ccc1Oc1ccnc(-c2cnn(C)c2)c1		Beagle dog, male, plasma	intravenous, 1 mg/kg		AUC(0-inf)	7520 ng·h/mL
O=C1CSCCN1c1ccc(CO[C@@H]2COc3nc([N+](=O)[O-])cn3C2)cc1		aqueous buffer	pH 7.4		aqueous solubility	29 µg/mL (≈ 74.3 µM)
COc1cccc(-c2n[nH]c(SCc3ccccn3)n2)c1OC		Sprague-Dawley rats, both sexes	oral dietary, 30 mg/kg/day, day 7, 12 h		plasma concentration	1490 ng/mL
CC(C)(N)COCC(=O)N1CCC[C@H](C(=O)NCc2nc(-c3ccc(C(F)(F)F)cc3)cs2)C1		Sprague-Dawley rat, male, urine	intravenous, 1 mg/kg, 24 h	reference: dose	urinary excretion	4.7%
CCOc1c([C@H](C)n2nc(C)c3c(N)ncnc32)cc(Cl)c(F)c1[C@@H]1CNC(=O)C1	measured: QTcF change ≤30 ms	previously treated B-cell malignancy	oral, 5 mg once daily, baseline QTcF ≤450 ms	reference: baseline	ECG observations	60%
OCc1nc2ccc(NCc3ccc(C(F)(F)F)cc3)cc2[nH]1		human liver S9	1 µM, pH 7.4		elimination rate constant	7.33e-05 s⁻¹
O=C1C[C@@H](c2ccc(O)cc2)Oc2cc(O)cc(O)c21		red blood cells	20 ppm, 1 h		hemolysis	1.67%

Excerpt of the above:
SMILES	assay	test system	conditions	how to read	measurement	result
C[Si]1(C)O[Si](C)(C)O[Si](C)(C)O[Si](C)(C)O[Si](C)(C)O1					slope B, log KAW vs 1/T	-6470
CC(C)n1c(Nc2cccnc2)nc2cnc(Nc3ccc(N4CCN(C)CC4)cc3)nc21	measured: creatine phosphokinase increased	healthy male subjects	oral, 100 mg, study, with: itraconazole		subjects with adverse event	7.1%
C[C@H]1Oc2cc(cnc2N)-c2c(nn(C)c2C#N)CN(C)C(=O)c2ccc(F)cc21		human, plasma	recommended dose, total		average steady-state concentration	580 nmol/L
